Results of several laboratories.
Protocols differ between the studies behind these lines. ± gives the spread as reported.
rep main protease: Replicase polyprotein 1ab, main protease (rep, Severe acute respiratory syndrome coronavirus 2, UniProt P0DTD1)
rep nsp14: Replicase polyprotein 1ab, nsp14 (rep, Severe acute respiratory syndrome coronavirus 2, UniProt P0DTD1)

For `Oc1cc(O)c2c(c1)O[C@H](c1cc(O)c(O)c(O)c1)[C@H](O)C2`, the Kd was 11.2 µM (rep main protease; binding, SPR).
`CCCCCCCCCCCCCCCC(=O)N[C@@H](CCC(=O)NCCOCCOCCC(=O)NCCOCCOCCC(=O)NCCCC[C@H](NC(=O)[C@H](CC(=O)O)NC(=O)[C@H](CC(C)C)NC(=O)[C@H](Cc1ccc(O)cc1)NC(=O)[C@H](CCCCN)NC(=O)[C@H](CO)NC(=O)[C@H](Cc1ccc(O)cc1)NC(=O)[C@H](CC(=O)O)NC(=O)[C@H](CO)NC(=O)[C@@H](NC(=O)[C@H](Cc1ccccc1)NC(=O)[C@@H](NC(=O)CNC(=O)[C@H](CCC(N)=O)NC(=O)[C@@H](CO)NC(=O)[C@@H](N)Cc1c[nH]cn1)[C@@H](C)O)[C@@H](C)O)C(=O)N[C@@H](CCCNC(=N)N)C(=O)N[C@@H](CCCNC(=N)N)C(=O)N[C@@H](C)C(=O)N[C@@H](CCC(N)=O)C(=O)N[C@@H](CC(=O)O)C(=O)N[C@@H](Cc1ccccc1)C(=O)N[C@H](C(=O)N[C@@H](CCC(N)=O)C(=O)N[C@@H](Cc1c[nH]c2ccccc12)C(=O)N[C@@H](CC(C)C)C(=O)N[C@@H](CC(C)C)C(=O)N[C@@H](CC(N)=O)C(=O)N[C@H](C(=O)NCC(=O)NCC(=O)N1CCC[C@H]1C(=O)N[C@@H](CO)C(=O)N[C@@H](CO)C(=O)NCC(=O)N[C@@H](C)C(=O)N1CCC[C@H]1C(=O)N1CCC[C@H]1C(=O)N1CCC[C@H]1C(=O)N[C@@H](CO)C(N)=O)[C@@H](C)O)C(C)C)C(=O)O` has an AUC(0-t) of 3890 ng·h/mL (rhesus monkey, male, plasma; subcutaneous, 300 µg/kg, day 1, toxicokinetics, mean).
`CCN1C(=O)CCC1c1c(O)cc(O)c2c1O[C@H](c1cc(O)c(O)c(O)c1)[C@H](OC(=O)c1cc(O)c(O)c(O)c1)C2` (stereo partly drawn) gave a Kd of 3.46 µM (rep main protease; binding, SPR).
`O=C(/C=C/c1ccc(O)c(O)c1)O[C@@H]1Cc2c(O)cc(O)cc2O[C@@H]1c1ccc(O)c(O)c1` has a Kd of 3.6 µM (rep main protease; binding, SPR).
`O=c1oc2c(O)c(O)ccc2c2cc(O)c(O)cc12` gave a Kd of 0.065 ± 0.006 µM (rep main protease; microscale thermophoresis; SARS-CoV-2; overnight, pH 8, 4 °C).
`Nc1ncnc2c1ncn2[C@@H]1O[C@H](CSCCNC(=O)NCCc2ccccc2)[C@@H](O)[C@H]1O` gave a Kd of 1.6 µM (rep nsp14; binding to nsp14, surface plasmon resonance).
`O=C(O)CCC(=O)Nc1ccc2nc3c(=O)[nH]c(=O)[nH]c3nc2c1` gave a Kd of 45 ± 1.8 µM (Replicase polyprotein 1ab, nsp3 macrodomain (rep, Severe acute respiratory syndrome coronavirus 2, UniProt P0DTD1); binding, microscale thermophoresis; 4% DMSO).
For `CC(=O)N[C@@H](Cc1ccc(O)cc1)C(=O)N[C@@H](CCCNC(=N)N)C(=O)N[C@@H](Cc1ccccc1)C(=O)N[C@H]1CCC[C@@H]1C(=O)N[C@@H](CCCNC(=N)N)C(=O)N[C@@H](CC(N)=O)C(=O)N[C@H]1CCC[C@@H]1C(=O)N[C@H](C(=O)N[C@@H](Cc1ccccc1)C(=O)N[C@H]1CCC[C@@H]1C(=O)N[C@@H](Cc1ccccc1)C(=O)N[C@@H](Cc1ccc(O)cc1)C(=O)N[C@H]1CCC[C@@H]1C(=O)N[C@H](C(=O)N[C@@H](CC(=O)O)C(N)=O)[C@@H](C)O)C(C)C`, the Kd was 0.0151 µM (rep main protease; binding, SPR).
`CN(C)CCNC(=O)C[C@H](Cc1ccc(F)cc1)NC(=O)[C@@H](Cc1ccc(Cl)cc1Cl)NC(=O)[C@H](N)Cc1ccccc1C#N` has a Kd of 0.196 µM (rep main protease; binding, SPR).
For `CSC[C@H]1O[C@@H](n2cnc3c(N)ncnc32)[C@H](O)[C@@H]1O`, the Kd was 6.2 µM (rep nsp14; binding to nsp14, surface plasmon resonance).
For `O=C(O[C@@H]1Cc2c(O)cc(O)cc2O[C@@H]1c1ccc(O)c(O)c1)c1cc(O)c(O)c(O)c1`, the Kd was 16 µM (rep main protease; binding, SPR).
The Kd of `O=C(Nc1ccc(-c2noc(O)n2)cc1)C1CCCS1` (stereo not drawn) is reported as greater than 200 µM (Replicase polyprotein 1ab, nsp12 RdRp (rep, Severe acute respiratory syndrome coronavirus 2, UniProt P0DTD1); binding).
